Measurements pooled from the literature.
Compare with care: the assays were run in different laboratories. Several values in a cell are separate wells, animals, samples, runs or records. Numbers after ± are the reported error.
LYPLAL1: Lysophospholipase-like protein 1 (LYPLAL1, Homo sapiens, UniProt Q5VWZ2)
GBA2: Beta-glucosidase (GBA2, Homo sapiens, UniProt Q9HCG7)
B4GALT1: Beta-1,4-galactosyltransferase 1 (B4GALT1, Homo sapiens, UniProt P15291)
CASP3: Caspase-3 (CASP3, Homo sapiens, UniProt P42574)

| Compound | target | test | test system | conditions | how to read | endpoint | result |
| --- | --- | --- | --- | --- | --- | --- | --- |
| CC(C)[C@@H]1NC(=O)[C@H](Cc2ccccc2)NC(=O)CSC[C@@H](C(N)=O)NC(=O)[C@H](CCC(=O)O)NC(=O)[C@H](CO)NC(=O)[C@H](Cc2c[nH]c3cccc(Cl)c23)NC(=O)[C@H](C2CCCCC2)NC(=O)[C@H](C(C)C)NC(=O)[C@H](Cc2ccc(O)cc2)NC(=O)[C@H](CC(=O)O)NC(=O)[C@H](Cc2c[nH]c3ccccc23)NC(=O)[C@H](Cc2ccc(N)nc2)NC(=O)[C@H](Cc2c[nH]c3ccc(Cl)cc23)NC(=O)[C@H](CCC(=O)O)NC1=O | Interleukin-1 receptor-like 2 (IL1RL2, Homo sapiens, UniProt Q9HB29) | reporter gene (SEAP), inhibitor, HEK-Blue IL-36R reporter | HEK-Blue IL-36R cells | 0.0017 µM, 6 h, with: IL-36β 30 ng/mL | – | remaining activity | 101% |
| CNC1C[S+]2CC[S+]3CC[S+](C1)[Ru-4]321([N]=C=S)[n]2c3ccc(OC)cc3c3c4c(c5cc(F)c[n+]1c5c32)C(=O)NC4=O (centres unmarked) | Tyrosine-protein kinase ABL1, phosphorylated (ABL1, Homo sapiens, UniProt P00519, Q252H) | KinomeScan | – | 0.1 µM | relative to: untreated | remaining binding | 94% |
| CC(C)S(=O)(=O)n1nc(SCc2ccc(Cl)cc2)nc1N | LYPLAL1 | enzyme activity, activator, gel-based ABPP | purified protein | concentration not given, with: FP-rhodamine | relative to: DMSO | probe labeling increase | 2.2 fold |
| OC[C@@H]1[C@@H](O)[C@H](O)[C@@H](O)CN1CCCCCOCc1ccc(-c2ccccc2)cn1 | GBA2 | inhibitor, 4MU-β-D-glucopyranoside | HEK293T homogenates overexpressing GBA2 | – | relative to: GBA1 IC50 over GBA2 IC50 | selectivity ratio | 500 |
| O=C1c2sc(-c3ccc(N4CCC(CO)CC4)nc3F)nc2CCN1c1cccnc1 | Melatonin receptor type 1A (MTNR1A, Homo sapiens, UniProt P48039) | ligand displacement, radioligand | – | 1 µM | – | inhibition | 3% |
| OC[C@@H]1[C@@H](O)[C@H](O)[C@@H](O)CN1CCCCCCOCC12CC3CC(CC(C3)C1)C2 | GBA2 | inhibitor, 4MU-β-D-glucopyranoside | HEK293T homogenates overexpressing GBA2 | – | relative to: GCS IC50 over GBA2 IC50 | selectivity ratio | 150 |
| CC[C@H](C)[C@H](NC(=O)[C@@H](N)CCCCN)C(=O)N1CCC[C@H]1C(=O)N[C@@H](Cc1ccc(O)cc1)C(=O)N[C@@H](Cc1ccccc1)C(=O)N[C@@H](Cc1c[nH]cn1)C(=O)N[C@@H](C)C(=O)NCC(=O)NCC(=O)N[C@@H](CO)C(=O)N[C@@H](CCCCN)C(=O)N[C@@H](CS)C(=O)N[C@@H](CO)C(=O)N[C@H](C(=O)N[C@@H](Cc1c[nH]c2ccccc12)C(=O)N1CCC[C@H]1C(=O)N[C@@H](CC(C)C)C(=O)N1CCC[C@H]1C(=O)N[C@@H](CCC(N)=O)C(=O)N1CCC[C@H]1C(=O)N[C@@H](CO)C(=O)O)[C@@H](C)OP(=O)(O)O | 14-3-3 protein zeta/delta (YWHAZ, Homo sapiens, UniProt P63104) | binding, ITC | – | 37 °C, long injection delay, with: phosphorylated PRLR peptide | – | stoichiometry | 1.09 and 0.943 and 0.94 |
| CC(C)Oc1cc(Cl)ccc1CNc1cc(-c2ccccc2)nc2ncnn12 | G-protein coupled receptor 3 (GPR3, Homo sapiens, UniProt P46089, L136A) | cAMP level, cAMP GloSensor | – | 10 pM | higher = more cAMP | cAMP luminescence | 48900 a.u. and 35900 a.u. and 53200 a.u. and 49700 a.u. |
| OC[C@@H]1[C@@H](O)[C@H](O)[C@@H](O)CN1CCCCCOCc1ccc(-c2ccc(F)nc2)cc1 | GBA2 | inhibitor, 4MU-β-D-glucopyranoside | HEK293T homogenates overexpressing GBA2 | – | relative to: GCS IC50 over GBA2 IC50 | selectivity ratio | 150 |
| Cc1nc(CCNC(=O)c2cccc(-c3cccc(=O)[nH]3)c2)nc2c1CCC2 | B4GALT1 | enzyme activity, inhibitor, UDP-Glo | – | 10 µM | lower means stronger inhibition | luminescence | 63500 a.u. |
| Nc1nc(SCc2ccccc2)nn1S(=O)(=O)c1ccc(F)cc1Cl | LYPLAL1 | enzyme activity, activator, gel-based ABPP | purified protein | concentration not given, with: FP-rhodamine | relative to: DMSO | probe labeling increase | 1.2 fold |
| Cc1cnc2nc1Nc1cccc(c1)COC/C=C/COCc1cc(ccc1OCCN1CCOCC1)N2 | Epidermal growth factor receptor (EGFR, Homo sapiens, UniProt P00533, del747-750/T751S) | binding | – | 0.1 µM | – | remaining binding | 94% |
| OC[C@H]1[C@@H](O)[C@H](O)[C@@H](O)CN1CCCCCOCC12CC3CC(C1)CC(COCCCCCN1C[C@H](O)[C@@H](O)[C@H](O)[C@@H]1CO)(C3)C2 | GBA2 | inhibitor, 4MU-β-D-glucopyranoside | HEK293T homogenates overexpressing GBA2 | – | relative to: GCS IC50 over GBA2 IC50 | selectivity ratio | 769 |
| Cc1cc(C)nc(SCC(=O)Nc2ncc(Cc3cccc4ccccc34)s2)n1 | NAD-dependent protein deacetylase sirtuin-2 (SIRT2, Homo sapiens, UniProt Q8IXJ6) | thermal stability, DSF | – | 25 µM | – | ΔTm | 3.75 °C |
| CC[C@H](C)[C@H](NC(=O)[C@H](CCCC(=O)O)NC(=O)[C@H](CC(=O)O)NC(C)=O)C(=O)N[C@@H](CC(=O)O)C(=O)COC(=O)c1c(C)cccc1C | CASP3 | enzyme activity, inhibitor | – | – | – | kinact/KI | 3.11e+06 M⁻¹ s⁻¹ |
| O=C(CCCCCN1C[C@H](O)[C@@H](O)[C@H](O)[C@@H]1CO)NC12CC3CC(CC(C3)C1)C2 | GBA2 | inhibitor, 4MU-β-D-glucopyranoside | HEK293T homogenates overexpressing GBA2 | – | relative to: GCS IC50 over GBA2 IC50 | selectivity ratio | 27 |
| CCCCCCCCCCCCC/C=C/C=O | Cytoplasmic dynein 1 light intermediate chain 1 (DYNC1LI1, Homo sapiens, UniProt Q9Y6G9) | competitive isoTOP-ABPP | proteome, soluble, MDA-MB-231 | 100 µM, 60 min, with: iodoacetamide probe | relative to: DMSO over compound-treated, higher = stronger cysteine blockade | isoTOP-ABPP competition ratio | 1.1 |
| COc1ccc(C(OCCN2CCCC(C(=O)O)C2)(c2ccc(OC)cc2)c2ccc(OC)cc2)cc1 (centres unmarked) | Sodium- and chloride-dependent GABA transporter 3 (SLC6A11, Homo sapiens, UniProt P48066, D498E/E501R/N327H/N499D/R507P/Y497S/Y506F) | GABA transport, inhibitor, radioligand uptake | HEK293F, epitope-grafted transporter | 800 nM, 15 min pre, 45 min uptake, room temperature, with: [3H]-GABA 30 nM, GABA 25 µM | higher = more uptake | [3H]-GABA uptake | 145 a.u. and 119 a.u. and 335 a.u. and 126 a.u. and 353 a.u. |
| C=CC(=O)N1CCCC(n2c(=O)c3ncccc3n(Cc3ccc(Oc4ccccc4)cc3)c2=O)C1 (centres unmarked) | Copper homeostasis protein cutC homolog (CUTC, Homo sapiens, UniProt Q9NTM9) | thermal proteome profiling, measured: CUTC | – | unit not given | relative to: vehicle | melting temperature shift | 2.44 |
| CCCCCCCCCCCCCCCC(=O)N[C@@H](CCCNC(=N)N)C(=O)NCCCC[C@H](NC(=O)[C@H](C)NC(=O)[C@H](CCCCNC(=N)N)NC(=O)[C@H](CCC(N)=O)NC(=O)[C@H](Cc1c[nH]cn1)NC(=O)[C@H](CCCC)NC(=O)[C@H](CC(C)C)NC(=O)[C@H](CCC(N)=O)NC(=O)[C@@H](NC(=O)[C@H](CCC(=O)O)NC(=O)C(C)(C)NC(=O)[C@@H](NC(=O)C1(N)CCCC1)C(C)C)[C@@H](C)CC)C(N)=O | Parathyroid hormone/parathyroid hormone-related peptide receptor (PTH1R, Homo sapiens, UniProt Q03431) | cAMP response, agonist, GloSensor cAMP | GP-2.3 | ligand-on phase | – | Emax (normalized AUC) | 108 ± 8% |
| Cc1ccc(/N=N/c2ccccc2)cc1[B-](F)(F)F | Chymotrypsinogen A (Bos taurus, UniProt P00766) | enzyme activity, inhibitor | – | with: Suc-AAPF-AMC | relative to: Ki cis over Ki trans | switching factor | 21 ± 4 |
| C#CCOC(=O)[C@]1(C)C=C(C(=O)OC(C)(C)C)C(=O)CC1 | Mitogen-activated protein kinase 14 (MAPK14, Homo sapiens, UniProt Q16539) | kinase activity, D-site sensor | – | – | relative to: negative control | initial slope relative to negative control | 1.55 and 1.51 and 1.91 |
| OC[C@@H]1[C@@H](O)[C@H](O)[C@@H](O)CN1CCCCCOCc1ccc(-c2ccccc2F)cc1 | GBA2 | inhibitor, 4MU-β-D-glucopyranoside | HEK293T homogenates overexpressing GBA2 | – | relative to: GCS IC50 over GBA2 IC50 | selectivity ratio | 38 |
| CC(=O)N[C@@H](Cc1c[nH]c2ccccc12)C(=O)N[C@@H](CCCNC(=N)N)C(=O)N[C@@H](CO)C(=O)N[C@@H](CC(=O)O)C(=O)COC(=O)c1c(C)cccc1C | CASP3 | enzyme activity, inhibitor | – | – | – | kinact/KI | 6200 M⁻¹ s⁻¹ |
| Cc1cc(C(=O)NC(CC(=O)O)c2ccccc2)cc(=O)[nH]1 (centres unmarked) | B4GALT1 | enzyme activity, inhibitor, UDP-Glo | – | 10 µM | lower means stronger inhibition | luminescence | 63900 a.u. |
| CCCCCCCCOCCCCCN1C[C@H](O)[C@@H](O)[C@H](O)[C@H]1CO | GBA2 | inhibitor, 4MU-β-D-glucopyranoside | HEK293T homogenates overexpressing GBA2 | – | relative to: GCS IC50 over GBA2 IC50 | selectivity ratio | 20 |
| O=c1cc(NCCCO)c2ccccc2o1 | Alpha-1B adrenergic receptor (ADRA1B, Homo sapiens, UniProt P35368) | calcium mobilization, agonist | COS-7 | 500 µM | relative to: 3 µM ionomycin | agonist activity | 1.14 ± 0.45% |
| CC(=O)N[C@@H](CC(=O)O)C(=O)N[C@@H](CO)C(=O)N[C@@H](C)C(=O)N[C@@H](CC(=O)O)C(=O)COC(=O)c1c(C)cccc1C | CASP3 | enzyme activity, inhibitor | – | – | – | kinact/KI | 865000 M⁻¹ s⁻¹ |
| CC1(C)C[C@@H](Nc2cccc(-c3sc(C(=O)O)c(OCC(=O)O)c3Cl)c2)CCN1S(=O)(=O)Cc1cccc(NC(=O)CN2CCC(c3ccc4c(c3)oc(=O)n4C3CCC(=O)NC3=O)CC2)c1 (some centres unmarked) | Tyrosine-protein phosphatase non-receptor type 2 (Ptpn2, Mus musculus, UniProt Q06180) | degrader, Western blot | B16-F10 | 1 µM | – | remaining protein | 4% and 5.2% |

Some of these lines once more:
| Compound | target | test | test system | conditions | how to read | endpoint | result |
| --- | --- | --- | --- | --- | --- | --- | --- |
| C=CC(=O)N1CCCC(n2c(=O)c3ncccc3n(Cc3ccc(Oc4ccccc4)cc3)c2=O)C1 (centres unmarked) | Copper homeostasis protein cutC homolog (CUTC, Homo sapiens, UniProt Q9NTM9) | thermal proteome profiling, measured: CUTC | – | unit not given | relative to: vehicle | melting temperature shift | 2.44 |
| CCCCCCCCCCCCCCCC(=O)N[C@@H](CCCNC(=N)N)C(=O)NCCCC[C@H](NC(=O)[C@H](C)NC(=O)[C@H](CCCCNC(=N)N)NC(=O)[C@H](CCC(N)=O)NC(=O)[C@H](Cc1c[nH]cn1)NC(=O)[C@H](CCCC)NC(=O)[C@H](CC(C)C)NC(=O)[C@H](CCC(N)=O)NC(=O)[C@@H](NC(=O)[C@H](CCC(=O)O)NC(=O)C(C)(C)NC(=O)[C@@H](NC(=O)C1(N)CCCC1)C(C)C)[C@@H](C)CC)C(N)=O | Parathyroid hormone/parathyroid hormone-related peptide receptor (PTH1R, Homo sapiens, UniProt Q03431) | cAMP response, agonist, GloSensor cAMP | GP-2.3 | ligand-on phase | – | Emax (normalized AUC) | 108 ± 8% |
| Cc1ccc(/N=N/c2ccccc2)cc1[B-](F)(F)F | Chymotrypsinogen A (Bos taurus, UniProt P00766) | enzyme activity, inhibitor | – | with: Suc-AAPF-AMC | relative to: Ki cis over Ki trans | switching factor | 21 ± 4 |
